Results collected from several papers.
Lines come from different studies, so protocols differ. “And” joins repeats or separate records; there may be more than shown. ± marks the error that the study gave. Converted amounts (≈) assume the structure as drawn.

Compound = Brc1ccc2nc(SCc3ccccc3)c(CNCc3ccc(CN4CCCC4)cc3)cc2c1; organism = Acinetobacter baumannii; test = NADH-driven proton pumping, ACMA quenching; test system = inverted membrane vesicles; setting = 2 µg/mL; quantity = inhibition; value = 9%
Compound = Cc1nc2[nH]c(=O)n(O)c(=O)c2s1; organism = Echinochloa crus-galli; test = glasshouse pot; setting = 750 g/ha, 21 days, post-emergence; quantity = inhibition; value = 0%
Compound = COc1cc2c(cc1NC(=O)c1ccc(C(C)(C)C)cc1)CCCCC2; organism = Dengue virus 2; test = viral replication; test system = HEK293; quantity = EC90; value = 0.11 µM
Compound = C[C@@H](O)[C@H]1C(=O)N2C(C(=O)O)=C(SCCN=CN)C[C@H]12; organism = Acinetobacter baumannii; test system = 0403, female ICR mice, peritonitis, spleen; setting = dose not given; quantity = bacterial load; value = 2.22 log CFU and 3.22 log CFU and 3.12 log CFU and 2.52 log CFU and 3 log CFU
Compound = Nc1nc(-c2ccccc2)nc2[nH]nc(Nc3ccc(C(F)(F)F)cc3)c12; organism = coxsackievirus B3; test system = 31-1-93, NMRI mice, CVB3 chronic myocarditis; setting = oral, 100 mg/kg twice daily, day 6, dosed days 1 to 7, score scale 0 to 7; how to read = direction not given; quantity = clinical score; value = 0.44
Compound = Cc1c(CN(C)C(=O)/C=C/c2cnc3c(c2)CC(NC(=O)OC(C)(C)C)C(=O)N3)oc2ccccc12 (stereo not shown); organism = Acinetobacter baumannii; test = broth microdilution; test system = AR-0313; quantity = MIC; value = > 32 mg/L
Compound = Cc1ccc(CCC(=O)Nc2nnc(S(N)(=O)=O)s2)cc1; organism = Enterococcus faecium; test system = NR-32094; quantity = MIC; value = 0.184 µM
Compound = O=c1cc2ccocc-2o1; organism = Arabidopsis thaliana; test system = wild type, seeds; setting = 1 µM, after high temperature; quantity = germination rate; value = 55.7%
Compound = C=C[C@]1(C)C[C@@H](OC(=O)CSCCN(CC)CC)[C@]2(C)[C@H](C)CC[C@]3(CCC(=O)[C@H]32)[C@@H](C)[C@@H]1O; organism = Mycoplasma gallisepticum; test system = infected chickens; setting = intramuscular, 40 mg/kg, score scale 0 to 4; how to read = direction not given; quantity = air sac lesion score; value = 1.88
Compound = CN[C@H](CC(C)C)C(=O)N[C@H]1C(=O)N[C@@H](CC(N)=O)C(=O)N[C@H]2C(=O)N[C@H]3C(=O)N[C@H](C(=O)N[C@H](C(=O)O)c4cc(O)cc(O)c4-c4cc3ccc4O)[C@H](O)c3ccc(c(Cl)c3)Oc3cc2cc(c3O[C@@H]2O[C@H](CO)[C@@H](O)[C@H](O)[C@H]2O[C@H]2C[C@](C)(N)[C@H](O)[C@H](C)O2)Oc2ccc(cc2Cl)[C@H]1O; organism = Enterococcus faecium; test system = Enterococcus faecalis; setting = 40 strains; quantity = MIC50; value = 0.5 mg/L (≈ 0.345 µM)
Compound = CN[C@H](CC(C)C)C(=O)N[C@H]1C(=O)N[C@@H](CC(N)=O)C(=O)N[C@H]2C(=O)N[C@H]3C(=O)N[C@H](C(=O)N[C@H](C(=O)O)c4cc(O)cc(O)c4-c4cc3ccc4O)[C@H](O)c3ccc(c(Cl)c3)Oc3cc2cc(c3O[C@@H]2O[C@H](CO)[C@@H](O)[C@H](O)[C@H]2O[C@H]2C[C@](C)(N)[C@H](O)[C@H](C)O2)Oc2ccc(cc2Cl)[C@H]1O; organism = Staphylococcus; test system = MRSE-37, mouse systemic infection; setting = intravenous; how to read = survival; quantity = ED50; value = 13.1 mg/kg
Compound = CCc1nn(C)c2nc(-c3ccc(C(=O)O)cc3)nc(NCc3ccc(F)cc3)c12; organism = Cryptosporidium parvum; test system = HCT-8; setting = 6 x EC90, 24 h; how to read = relative to: DMSO control; quantity = parasite number; value = 24.2% and 23.9% and 22.6% and 24.1%
Compound = COC(=O)[C@H](Cc1ccc(O)cc1)NCc1cc2ccccc2nc1SC; organism = Pseudomonas aeruginosa; setting = 64 µg/mL, without pentamidine; how to read = relative to: control; quantity = growth; value = 90%
Compound = Cc1cnc(N2CC3(CCOCC3)C2)c(C(=O)Nc2ccc(C(=O)N3CCc4cc(C(=O)Nc5c(C)cccc5F)sc4-c4ccccc43)cc2)c1; organism = human respiratory syncytial virus; test = viral replication, inhibitor; setting = concentration not given, added: 50% human serum; quantity = fold reduction of antiviral effect; value = 11 fold
Compound = COC[C@H]1O[C@@H]2O[C@H]3[C@H](OC)[C@@H](OC)[C@@H](O[C@H]4[C@H](OC)[C@@H](OC)[C@@H](O[C@H]5[C@H](OC)[C@@H](OC)[C@@H](O[C@H]6[C@H](OC)[C@@H](OC)[C@@H](O[C@H]7[C@H](OC)[C@@H](OC)[C@@H](O[C@H]8[C@H](OC)[C@@H](OC)[C@@H](O[C@H]1[C@H](OC)[C@H]2OC)O[C@@H]8COC)O[C@@H]7COC)O[C@@H]6COC)O[C@@H]5COC)O[C@@H]4COC)O[C@@H]3COC; organism = Escherichia coli; test = LuxR reporter, agonist; test system = DH5α sensor strain; setting = 1 µM; quantity = bioluminescence; value = 733 ± 41 RLU
Compound = COC(=O)[C@@H](CCSC)NCc1cc2ccccc2nc1SC; organism = Pseudomonas aeruginosa; setting = 128 µg/mL, added: pentamidine 100 µM; how to read = relative to: control; quantity = growth; value = 75.9%
Compound = CCOC(=O)c1c(C)nc(NCCCNc2ccnc3cc(Cl)ccc23)nc1C; organism = feline herpesvirus; test = viral replication; test system = CRFK; quantity = EC50; value = > 100 µM
Compound = CC1=C[C@H](O/C=C2/C(=O)O[C@@H]3c4ccccc4C[C@H]23)OC1=O (racemic); organism = Arabidopsis thaliana; test system = atd14-1 mutant, seedlings; setting = 1 µM; quantity = hypocotyl length; value = 7.06 mm
Compound = CC[C@H]1OC(=O)[C@H](C)[C@@H](O[C@H]2C[C@@](C)(OC)[C@@H](O)[C@H](C)O2)[C@H](C)[C@@H](O[C@@H]2O[C@H](C)C[C@H](N(C)C)[C@H]2O)[C@](C)(O)C[C@@H](C)/C(=N\OCOCCOC)[C@H](C)[C@@H](O)[C@]1(C)O; organism = Streptococcus agalactiae; test system = 25 clinical isolates; quantity = MIC50; value = 2 mg/L (≈ 2.39 µM)
Compound = C[C@]12CC[C@@H]3c4ccc(O)cc4CC[C@H]3[C@@H]1CC[C@@H]2O; organism = Arabidopsis thaliana; test = qRT-PCR, item: RAB18; test system = estradiol-inducible CLE5 line, seedlings; setting = 1 µM, β-estradiol induced, unit not given; how to read = relative to: mock; quantity = mRNA level; value = 2.95 and 3.04 and 3.31 and 2.67 and 2.89 and 3.2
Compound = Cc1nc(NCCCCNc2ccnc3cc(Cl)ccc23)nc(-c2ccccc2[N+](=O)[O-])c1C(=O)OC(C)C; organism = feline herpesvirus; test = viral replication; test system = CRFK; quantity = EC50; value = > 20 µM
Compound = Cc1cc(OC(C)C)ccc1C(=O)C(C)(C)NC(=O)c1sccc1C; organism = Botrytis allii; test = mycelial growth; test system = PSA medium; setting = 20 °C; quantity = EC50; value = 0.22 mg/L
Compound = N=C(N)c1ccc(OCCC(CCOc2ccc(C(=N)N)cc2)c2ccccc2)cc1 (stereo not shown); organism = Escherichia coli; test = checkerboard; test system = mcr-2 polymyxin-resistant; setting = concentration not given, 20 h, added: rifampicin; quantity = MIC of compound in combination; value = 12.5 mg/L
Compound = CCn1c(=O)c(-c2cc[nH]n2)cc2c(C)nc(N)nc21; organism = Echovirus 11; test = viral replication, RT-qPCR; test system = HeLa; setting = concentration not given, 20 h; quantity = viral RNA level; value = decreased
Compound = CC(=O)NC[C@H]1CN(c2ccc(N3CCOCC3)c(F)c2)C(=O)O1; organism = Enterococcus faecium; test system = NR-31912; quantity = MIC; value = 2.96 µM
Compound = COC(=O)[C@H](Cc1c[nH]c2ccccc12)NCc1cc2ccccc2nc1SC; organism = Pseudomonas aeruginosa; setting = 16 µg/mL, added: pentamidine 100 µM; how to read = relative to: control; quantity = growth; value = 55.8%
Compound = C[C@@H]1[C@H](O)[C@@H](C)/C=C/C=C/C=C/C=C/C=C/C=C/C=C/[C@H](O[C@@H]2O[C@H](C)[C@@H](O)[C@H](N)[C@@H]2O)C[C@@H]2O[C@](O)(C[C@@H](O)C[C@@H](O)[C@H](O)CC[C@@H](O)C[C@@H](O)CC(=O)O[C@H]1C)C[C@H](O)[C@H]2C(=O)O; organism = Aspergillus fumigatus; test system = Af 293; setting = 4 × MIC, 12 h; quantity = viable cell reduction; value = 65 to 70%
Compound = N=C(N)c1cccc(OCc2ccc(COc3cccc(C(=N)N)c3)cc2)c1; organism = Escherichia coli; test = checkerboard; test system = mcr-3 polymyxin-resistant; setting = concentration not given, added: rifampicin; quantity = MIC of compound in combination; value = 50 mg/L
Compound = Nc1nc2c(ncn2COCCO)c(=O)[nH]1; organism = herpes simplex virus 2; test = viral replication; test system = HEL cells, G; quantity = EC50; value = 1.2 µM
Compound = CC(=O)NC[C@H]1CN(c2ccc(N3CCOCC3)c(F)c2)C(=O)O1; organism = Staphylococcus; test system = MRSA-38, mouse systemic infection; setting = intravenous; how to read = survival; quantity = ED50; value = 13.7 mg/kg
Compound = CN1CCN(c2cnc3c(cc(C(=O)NCc4ccc(Cl)cc4)c(=O)n3CC(=O)N3CC(C)(F)C3)n2)C1=O; organism = herpes simplex virus 2; test = viral cytopathic effect; test system = Vero, G; setting = 120 h; quantity = EC50; value = 0.28 µM
Compound = CC1=CC(=O)CC(C)(C)[C@@]1(O)/C=C/C(C)=C\C(=O)O; organism = Arabidopsis thaliana; test system = PYL4 overexpression, seeds; setting = 1 µM; quantity = number of germinated seeds; value = 4 and 2
Compound = COc1cc(C#CC(=O)c2ccccc2)ccc1O; organism = Pseudomonas aeruginosa; test = biofilm formation; test system = PA14; setting = static; quantity = IC50; value = 9 µM
Compound = O=C(N1CCc2ccccc21)n1ccnn1; organism = Arabidopsis thaliana; test system = wild type, seeds; setting = 1 µM, after high-temperature exposure, added: 1 µM karrikin KAR2; quantity = germination rate; value = 55.9% and 36.1% and 57.1% and 42.5% and 50% and 67.9%
Compound = CC(C)n1ncc2c(C(=O)NCC3(C)CNC3)cc(C3CC3)nc21; organism = coxsackievirus B3; test = CPE; test system = Vero; setting = 0.5 µM; quantity = cell protection; value = 57.7% and 59.3%
Compound = O=c1[nH]c2ncsc2c(=O)n1O; organism = Echinochloa crus-galli; test = glasshouse pot; setting = 750 g/ha, 21 days, post-emergence; quantity = inhibition; value = 0%
Compound = COc1cc2cc(CNCCC3CCN(C4CCCC4)CC3)c(SCc3ccccc3)nc2c(OC)c1OC; organism = Acinetobacter baumannii; test = NADH-driven proton pumping, ACMA quenching; test system = inverted membrane vesicles; setting = 32 µg/mL; quantity = inhibition; value = 78%

Excerpt of the above:
Compound = Cc1cc(OC(C)C)ccc1C(=O)C(C)(C)NC(=O)c1sccc1C; organism = Botrytis allii; test = mycelial growth; test system = PSA medium; setting = 20 °C; quantity = EC50; value = 0.22 mg/L
Compound = Cc1cnc(N2CC3(CCOCC3)C2)c(C(=O)Nc2ccc(C(=O)N3CCc4cc(C(=O)Nc5c(C)cccc5F)sc4-c4ccccc43)cc2)c1; organism = human respiratory syncytial virus; test = viral replication, inhibitor; setting = concentration not given, added: 50% human serum; quantity = fold reduction of antiviral effect; value = 11 fold
Compound = CC(=O)NC[C@H]1CN(c2ccc(N3CCOCC3)c(F)c2)C(=O)O1; organism = Enterococcus faecium; test system = NR-31912; quantity = MIC; value = 2.96 µM
Compound = CC[C@H]1OC(=O)[C@H](C)[C@@H](O[C@H]2C[C@@](C)(OC)[C@@H](O)[C@H](C)O2)[C@H](C)[C@@H](O[C@@H]2O[C@H](C)C[C@H](N(C)C)[C@H]2O)[C@](C)(O)C[C@@H](C)/C(=N\OCOCCOC)[C@H](C)[C@@H](O)[C@]1(C)O; organism = Streptococcus agalactiae; test system = 25 clinical isolates; quantity = MIC50; value = 2 mg/L (≈ 2.39 µM)
Compound = COC[C@H]1O[C@@H]2O[C@H]3[C@H](OC)[C@@H](OC)[C@@H](O[C@H]4[C@H](OC)[C@@H](OC)[C@@H](O[C@H]5[C@H](OC)[C@@H](OC)[C@@H](O[C@H]6[C@H](OC)[C@@H](OC)[C@@H](O[C@H]7[C@H](OC)[C@@H](OC)[C@@H](O[C@H]8[C@H](OC)[C@@H](OC)[C@@H](O[C@H]1[C@H](OC)[C@H]2OC)O[C@@H]8COC)O[C@@H]7COC)O[C@@H]6COC)O[C@@H]5COC)O[C@@H]4COC)O[C@@H]3COC; organism = Escherichia coli; test = LuxR reporter, agonist; test system = DH5α sensor strain; setting = 1 µM; quantity = bioluminescence; value = 733 ± 41 RLU
Compound = COC(=O)[C@H](Cc1ccc(O)cc1)NCc1cc2ccccc2nc1SC; organism = Pseudomonas aeruginosa; setting = 64 µg/mL, without pentamidine; how to read = relative to: control; quantity = growth; value = 90%
